Measured values gathered from unrelated publications.
Each line is one published result; not all experiments were run side by side.
Technique: steady-state kinetics
B1: nitrilase Y142A (Rhodococcus rhodochrous, UniProt A4LA85); chain MVEYTNTFKVAAVQAQPVWFDAAKTVDKTVSIIAEAARNGCELVAFPEVFIPGYPYHIWVDSPLAGMAKFAVRYHENSLTMDSPHVQRLLDAARDHNIAVVVGISERDGGSLYMTQLIIDADGQLVARRRKLKPTHVERSVAGEGNGSDISVYDMPFARLGALNCWEHFQTLTKYAMYSMHEQVHVASWPGMSLYQPEVPAFGVDAQLTATRMYALEGQTFVVCTTQVVTPEAHEFFCENEEQRKLIGRGGGFARIIGPDGRDLATPLAEDEEGILYADIDLSAITLAKQAADPVGHYSRPDVLSLNFNQRRTTPVNTPLSTIHATHTFVPQFGALDGVRELNGADEQRALPSTHSDETDRATASI
B2: SQOR (Homo sapiens, UniProt Q9Y6N5); chain NHYEVLVLGGGSGGITMAARMKRKVGAENVAIVEPSERHFYQPIWTLVGAGAKQLSSSGRPTASVIPSGVEWIKARVTELNPDKNCIHTDDDEKISYRYLIIALGIQLDYEKIKGLPEGFAHPKIGSNYSVKTVEKTWKALQDFKEGNAIFTFPNTPVKCAGAPQKIMYLSEAYFRKTGKRSKANIIFNTSLGAIFGVKKYADALQEIIQERNLTVNYKKNLIEVRADKQEAVFENLDKPGETQVISYEMLHVTPPMSPPDVLKTSPVADAAGWVDVDKETLQHRRYPNVFGIGDCTNLPTSKTAAAVAAQSGILDRTISVIMKNQTPTKKYDGYTSCPLVTGYNRVILAEFDYKAEPLETFPFDQSKERLSMYLMKADLMPFLYWNMMLRGYWGGPAFLRKLFHLGMS
B3: protein (uncultured bacterium HF130_AEPn_1, UniProt D0E8I5); chain MSLSNSSKVSVLISLLEKSRDLDYIGEAINQLEHSLQCAYFAQRSGADNEMVLAALLHDLGHYCNDTSFEDMGGYGVWQHEKVGADYLRGLGFSERVACLIEGHVAAKRYLVSSKASYLKNLSDASRKTLEYQGGPMDEGERRLFEEREDFKDCLKIRAWDEKGKQTDLKVPGPEHYRKMMEEHLSENQN
B4: enzyme (Drosophila melanogaster, UniProt P82890); chain MVRKVLMICLGNICRSPIAEVVMVDTLEKANVKDVEVDSAAIGGWHVGNRADPRAISTLQKHGLKCTHIVRQIRKQDFSEFDYIFGMDEDNMSELRRLAPKGSKAELLMLGDFGLEKKNRIIEDPYYERGAEGFETAYQQCVVACAAFMKERLQK
B5: enzyme H376D (Acetivibrio thermocellus, UniProt A3DJ38); chain MKLTIPELSLVVLIGSSGSGKSTFAKKHFKPTEVISSDFCRGLVSDDENDQTVTGAAFDVLHYIVSKRLQLGKLTVVDATNVQESARKPLIEIAKDYHCFPVAVVFNLPEKVCQERNKNRTDRQVEEYVIRKHTQQLKKSIKGLQREGFRYVYILNSPEEVEEVVFERQPLWNNKKDEHGPFDIIGDIHGCYDELKMLLEKLGYLIEEVEGGVGSGKYRVTHPEGRKVLFLGDLVDRGPKITEVLKLVMGMVKSGIALCVPGNHDVKLLRKLNGRDVQITHGLDRTLEQLAKEPQEFIEEVKAFIDGLVSHYVLDDGKLVVAHAGMKEEFQGRGSGKVREFALYGETTGETDEYGLPVRYDWASDYRGKALVVYGDTPQAEVLKVNNTINIDTGCVFGGKLTAYRYPEREIVDVKALKTYYEPAKPFLPKEDMAERFEARTDNDILDINDVLGKKIITTRLMSSITIHEENSIAALEVMSRFAADPHWLIYLPPTMSPCETSKKEGMLEHPIEAFEYFRTRGVGKVVCEQKHMGSRAVVIVCKDSQVAEKRFGVLDGTAGICYTRTGRHFFDDMQLEAELIDRVRKVLDKSGFWGDFNTDWVCLDCELMPWSAKAQKLLEEQYSAVGISGRVVLDEAVKLLKQASLNKTVSFDVSRQTSGKNADINELLQRFTERSEMMQKYVEAYRKYCWPVNSIDDLKLAPFHILATEGKVHSDKNHIWHMDTIAKYCTQDDSLIMATNHILVDVTDAESVDKGIKWWEDLTASGGEGMVVKPYDFIVKNGRELLQPAVKCRGREYLRIIYGPEYTMDENIERLRNRAVGKKRSLALREFSLGMEALERFVRNEPLYRVHECVFGVLALESEPVDPRL
B6: enzyme N249W (Thermobifida fusca, UniProt Q47RK4); chain MTDVYILDAVRTPFGRYGGALSGIRPDDLAAHVLRALAERSPGLDPAAVDDVFFGDANGAGEDNRNVARMAALLAGWPTSVPGVTLNRLCGSGMESVIAANRAIAVGDASLAVAGGVESMSRAPWVLPKPAQGFPTGHETLYSTTLGWRMVNPAMPEQWTVSLGESTEQVAATYGISRAEQDAFALRSHERAARAWAEGVFDAEITQIPGAELERDESIRETSAEKLAALKPAFRPDGTITAGNASPLWDGAAALLIGDAAAAERVGREPLARIVSRGVAAVDPDVFGIGPVQAAEIALRRAGIGWDDLSVVELNEAFAAQSLACLKLWPDLDPEIVNPNGGAIAIGHPLGASGARIVGTLAHELHRRGGGWGLAAICIGVGQGLAVVLHR
B7: nitrilase Y142F (Rhodococcus rhodochrous, UniProt A4LA85); chain MVEYTNTFKVAAVQAQPVWFDAAKTVDKTVSIIAEAARNGCELVAFPEVFIPGYPYHIWVDSPLAGMAKFAVRYHENSLTMDSPHVQRLLDAARDHNIAVVVGISERDGGSLYMTQLIIDADGQLVARRRKLKPTHVERSVFGEGNGSDISVYDMPFARLGALNCWEHFQTLTKYAMYSMHEQVHVASWPGMSLYQPEVPAFGVDAQLTATRMYALEGQTFVVCTTQVVTPEAHEFFCENEEQRKLIGRGGGFARIIGPDGRDLATPLAEDEEGILYADIDLSAITLAKQAADPVGHYSRPDVLSLNFNQRRTTPVNTPLSTIHATHTFVPQFGALDGVRELNGADEQRALPSTHSDETDRATASI
B8: protein F432L (Streptomyces toyocaensis, UniProt Q8KLK7); chain MTTVLPPLEDTDGLWAALTEAAASVEKLLATLPEHGARSSAERAEIAAAHDAARALRVRFLDTHADAVYDRLTDHRRVHLRLAELVEAAATAFPGLVPTQQQLAVERSLPQAAKEGHEIDQGIFLRAVLRSPLAGPHLLDAMLRPTPRALELLPEFVRTGEVEMEAVHLERRDGVARLTMCRDDRLNAEDGQQVDDMETAVDLALLDPGVRVGLLRGGVMSHPRYRGKRVFSAGINLKYLSQGGISLVDFLMRRELGYIHKLVRGVLTNDDRPGWWHSPRIEKPWVAAVDGFAIGGGAQLLLVFDRVLASSDAYFSLPAAKEGIIPGAANLRLGRFAGPRVSRQVILEGRRIWAKEPEARLLVDEVVEPDELDAAIERSLTRLDGDAVLANRRMLNLADESPDGFRAYMAEFALMQALRLYGHDVIDKVGRLGGRPPA
B9: enzyme (Streptomyces coelicolor, UniProt Q9F1Y6); chain MPDSGTLGTPPPEQGPTPPTTLPDVPAPVIPSASVTSAASDFLAALHPPVTVPDPAPPPPPAPAAGNPPDTVTGDSVLQRILRGPTGPGTTSLAPAVRYGRQPGPEAPASAPPAAGRAVPGLYHHPVPEPDPVRVEEVSRRIKRWAEDEVQLYPEEWEGQFDGFSVGRYMVGCHPDAPTVDHLMLATRLMVAENAVDDCYCEDHGGSPVGLGGRLLLAHTAIDHFHSTAEYTPTWQASLAADAPRRAYDSAMGYFVRAATPSQSDRYRHDMARLHLGYLAEGAWAQTGHVPEVWEYLAMRQFNNFRPCPTITDTVGGYELPADLHARPDMQRVIALAGNATTIVNDLYSYTKELNSPGRHLNLPVVIAEREQLCERDAYLKAVEVHNELQHSFEAAAADLAEACPLPPVLRFLRGVAAWVDGNHDWHRTNTYRYSLPDFW
Sequence of UniProt J7SZ64 (whole entry, looked up): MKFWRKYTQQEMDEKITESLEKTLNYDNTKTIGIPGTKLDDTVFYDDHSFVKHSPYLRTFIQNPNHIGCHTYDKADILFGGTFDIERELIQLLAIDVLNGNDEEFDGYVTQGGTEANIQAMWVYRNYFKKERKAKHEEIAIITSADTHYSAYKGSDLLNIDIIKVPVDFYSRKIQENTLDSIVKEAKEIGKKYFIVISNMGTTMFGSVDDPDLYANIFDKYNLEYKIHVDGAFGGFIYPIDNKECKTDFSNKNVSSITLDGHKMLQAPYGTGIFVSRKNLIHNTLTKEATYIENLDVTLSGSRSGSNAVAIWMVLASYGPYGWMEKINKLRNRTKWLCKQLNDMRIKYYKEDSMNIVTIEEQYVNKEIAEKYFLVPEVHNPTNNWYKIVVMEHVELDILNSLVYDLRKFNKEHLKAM
Sequence of UniProt Q8PWY1 (whole entry, looked up): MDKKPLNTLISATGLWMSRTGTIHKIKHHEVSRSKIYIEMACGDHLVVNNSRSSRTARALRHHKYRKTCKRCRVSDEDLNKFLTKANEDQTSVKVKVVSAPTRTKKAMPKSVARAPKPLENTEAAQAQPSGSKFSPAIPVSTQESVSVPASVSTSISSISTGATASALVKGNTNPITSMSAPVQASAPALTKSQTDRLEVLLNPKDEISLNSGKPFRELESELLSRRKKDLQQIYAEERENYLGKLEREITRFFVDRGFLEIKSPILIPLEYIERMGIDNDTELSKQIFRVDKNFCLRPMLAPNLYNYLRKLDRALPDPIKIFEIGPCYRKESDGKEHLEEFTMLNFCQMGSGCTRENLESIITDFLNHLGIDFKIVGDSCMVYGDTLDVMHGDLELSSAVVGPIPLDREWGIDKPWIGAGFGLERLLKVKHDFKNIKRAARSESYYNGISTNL
Sequence of UniProt P25740 (whole entry, looked up): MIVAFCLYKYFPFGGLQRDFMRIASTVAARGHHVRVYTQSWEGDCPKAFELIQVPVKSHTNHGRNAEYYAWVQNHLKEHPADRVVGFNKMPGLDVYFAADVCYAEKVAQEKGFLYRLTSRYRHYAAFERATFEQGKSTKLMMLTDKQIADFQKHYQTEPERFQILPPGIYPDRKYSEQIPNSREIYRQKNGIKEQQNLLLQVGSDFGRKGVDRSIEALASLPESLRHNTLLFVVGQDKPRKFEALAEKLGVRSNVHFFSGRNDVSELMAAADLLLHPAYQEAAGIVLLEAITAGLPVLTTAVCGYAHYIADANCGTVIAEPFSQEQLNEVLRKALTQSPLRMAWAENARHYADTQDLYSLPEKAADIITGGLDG

B1 (nitrilase Y142A)  Km (N#Cc1ccccn1; pH 7.5, 25 °C): 819 µM
B2 (SQOR)  Km (CS; nanodiscs; pH 7.4, 25 °C, added: MeSH): 256 µM
B3 (protein)  Km (NC[C@H](O)P(=O)(O)O; pH 7, 25 °C, NaCl 150 mM, added: O2, Fe(II) 100 µM, ascorbate 100 µM): 63 µM
B4 (enzyme)  Km (O=[N+]([O-])c1ccc(OP(=O)(O)O)cc1; pH 6): 520 µM
pylS (Methanosarcina mazei, UniProt Q8PWY1)  Km (C=CCOC(=O)NCCCC[C@H](N)C(=O)O; pH 7.2, 37 °C, apparent): 720 µM
waaG (Escherichia coli, UniProt P25740)  Km (O=c1ccn([C@@H]2O[C@H](CO[P@@](=O)(O)O[P@@](=O)(O)O[C@H]3O[C@H](CO)[C@@H](O)[C@H](O)[C@H]3O)[C@@H](O)[C@H]2O)c(=O)[nH]1; pH 7.5, 25 °C, apparent): 162 µM
aacA-aphD (Staphylococcus aureus, UniProt P0A0C1)  Km (NCC[C@H](O)C(=O)N[C@@H]1C[C@H](N)[C@@H](O[C@H]2O[C@H](CN)[C@@H](O)[C@H](O)[C@H]2O)[C@H](O)[C@H]1O[C@H]1O[C@H](CO)[C@@H](O)[C@H](N)[C@H]1O; pH 7.5, 25 °C): 25 µM
B5 (enzyme H376D)  Km (Nc1ncnc2c1ncn2[C@@H]1O[C@H](CO)[C@H]2OP(=O)(O)O[C@H]21; pH 7.5, 45 °C): 3900 µM
plcB (Listeria monocytogenes, UniProt P33378)  Km (CCCC(=O)OC[C@H](COP(=O)([O-])OCC[N+](C)(C)C)OC(=O)CCC; pH 6, 37 °C): 43500 µM
B6 (enzyme N249W)  Km (CC(C)(COP(=O)(O)OP(=O)(O)OC[C@H]1O[C@@H](n2cnc3c(N)ncnc32)[C@H](O)[C@@H]1OP(=O)(O)O)[C@@H](O)C(=O)NCCC(=O)NCCSC(=O)CCCC(=O)O; pH 7.4, 37 °C): 2270 µM
azu N30H/N36H/Q34H (Pseudomonas aeruginosa)  Km (O=NO; pH 6.35): 35000 µM
B7 (nitrilase Y142F)  Km (N#CCCCC#N; pH 7.5, 25 °C): 1560 µM
B8 (protein F432L)  Km (CC(C)(COP(=O)(O)OP(=O)(O)OC[C@H]1O[C@@H](n2cnc3c(N)ncnc32)[C@H](O)[C@@H]1OP(=O)(O)O)[C@@H](O)C(=O)NCCC(=O)NCCSC(=O)Cc1cc(O)cc(O)c1; pH 7.5, 24 °C, added: O2): 0.5 µM
MilB F17Y (Streptomyces rimofaciens)  Km (Nc1ccn([C@@H]2O[C@H](COP(=O)(O)O)[C@@H](O)[C@H]2O)c(=O)n1; pH 7.5, 37 °C): 4500 µM
OXA-48 (Klebsiella pneumoniae, UniProt Q6XEC0)  Km (O=C(Cc1cccs1)N[C@@H]1C(=O)N2C(C(=O)O)=C(/C=C/c3ccc([N+](=O)[O-])cc3[N+](=O)[O-])CS[C@H]12; pH 7.2, 30 °C): 36 µM
B9 (enzyme)  Km (CC(C)=CCC/C(C)=C(\C)COP(=O)(O)OP(=O)(O)O; pH 6.7, 30 °C): 95 µM
aromatic amino acid decarboxylase (Clostridium sporogenes, UniProt J7SZ64)  Km (N[C@@H](Cc1c[nH]c2c(Cl)cccc12)C(=O)O; pH 7, 37 °C, not purified, added: PLP 40 µM): 4500 µM

A few entries again:
B2 (SQOR)  Km (CS; nanodiscs; pH 7.4, 25 °C, added: MeSH): 256 µM
